Results from different studies.
Every numbered part comes from another study and shows a few of its results, in no order. Positions count from the first letter of the parent shown.

Study 1
Target: Prothrombin, mature alpha-thrombin (F2, Homo sapiens, UniProt P00734)
Technique: aptamer microarray, sandwich
Molecule type: DNA with 2'F-ANA
Matrix: in vitro
Tested at: 200 nM
Setting: whole 15-mer aptamer, many near background
Together with: Cy3 exosite-II aptamer, 400 nM
Direction: higher = stronger binding
Sequence: GGTTGGTGTGGTTGG
Modification | mean fluorescence intensity [a.u.]
2'F-ANA at 1 4 6 8 10 12 13 14 15 | 47.7
2'F-ANA at 1 3 4 5 8 9 12 13 14 15 | 47
2'F-ANA at 4 5 8 9 13 15 | 49.5
2'F-ANA at 3 4 5 6 8 9 14 15 | 51.5
2'F-ANA at 1 2 3 8 10 11 13 14 15 | 63.8
2'F-ANA at 1 2 5 9 10 11 15 | 49.7
2'F-ANA at 1 5 8 9 14 15 | 43.3
2'F-ANA at 1 2 3 5 7 11 12 15 | 96
2'F-ANA at 3 4 6 9 10 12 13 15 | 231
2'F-ANA at 4 5 10 12 13 14 15 | 46
2'F-ANA at 1 3 6 8 11 13 | 272

Study 2
Target: RING finger protein unkempt homolog, zinc fingers 1-6, GST-SBP tag (UNK, Homo sapiens, UniProt Q9C0B0, residues 30-357)
Sequence of UniProt Q9C0B0 (30-357, looked up): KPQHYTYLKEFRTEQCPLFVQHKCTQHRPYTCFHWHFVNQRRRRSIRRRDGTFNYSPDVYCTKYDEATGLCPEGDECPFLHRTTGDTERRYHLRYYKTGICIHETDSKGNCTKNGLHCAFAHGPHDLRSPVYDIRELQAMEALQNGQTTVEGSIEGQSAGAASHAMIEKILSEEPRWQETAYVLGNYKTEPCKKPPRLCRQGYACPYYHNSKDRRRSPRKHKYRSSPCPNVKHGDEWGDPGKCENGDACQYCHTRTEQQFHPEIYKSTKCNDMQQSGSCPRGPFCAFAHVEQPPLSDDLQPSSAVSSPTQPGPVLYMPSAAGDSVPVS
Technique: RNA Bind-n-Seq
Molecule type: RNA
Matrix: in vitro
Tested at: not given
Setting: RNA with constant flanks, human and mouse sites, ends assumed
Baseline: input RNA pool
Direction: higher = stronger binding
Sequence | bound/input enrichment
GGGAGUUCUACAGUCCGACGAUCUCUUUAUUCCUUCCUUUUCCUUUUUUUCUUUUUUUUUUCUUUUUUUUUUUUUUUUUUUGGUAGUUGUUGUUACCCACGCCAUUUUACGUCUCCUUCACUGAAGGGCUAGAGUUUUAACUUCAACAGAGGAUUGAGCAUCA | 0.661 ratio
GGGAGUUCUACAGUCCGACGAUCCCAGGCCAGUGUGGCAGAGCAGACGGCUAUGUGCUCGAAGGCAAGGAGCUGGAGUUCUAUCUGCGGAAGAUCAAAGCCCGGAAAGGCAAAUGAGCCUCAUGUGUAGUGUAAUAAAGGUGUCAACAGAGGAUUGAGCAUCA | 3.62 ratio
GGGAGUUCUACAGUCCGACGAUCUUUCCAAAAUAAUGAAAUAAGUUUGUUUUGGGGCAUUUUGUGGUUUUGUUUGUUUGUUUUUGUUUUUUAACCAAAAGGUAAAUAAUGCUUAUUUCUGCUUCCUGUUUUCUUGGCUUGACUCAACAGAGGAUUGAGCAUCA | 0.269 ratio
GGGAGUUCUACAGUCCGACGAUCUAAGUUAUUUUGUACAGCUUUGUAAAUUCUUAACAUUUUUAUAUUGCCAUGUUUAUUUUGUUUGGGUAAUUUGGUUCAUUAAGUACAUAGCUAAGGUAAUGAACAUCUUUUUCAGUAAUUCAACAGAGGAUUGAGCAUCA | 0.822 ratio
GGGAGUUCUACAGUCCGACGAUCACCAUUCGGGAAAACAAUAAAAUUAAUAGAGUCAAUGAACUGAAUUCUGUAAAAGAAGUGGCUUUGGGUAGAAGCUUGGAUAACAAAGGAGACACUGAUGGAGAGGAUCAGGUUUGUGUUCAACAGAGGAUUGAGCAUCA | 2.64 ratio
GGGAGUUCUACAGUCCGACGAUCGCUCCCACUGCAGCCUCGAGUGCCCCUGUCCCACCUGGCUCCCCCUGCUGGUGUCUAGUGUUUUUUUCCCUCUCCUGUCCUUGUGUUGAAGGCAGUAAACUAAGGGUGUCAAGCCCCAUUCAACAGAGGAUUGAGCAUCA | 1.45 ratio
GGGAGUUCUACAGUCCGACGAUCCCAACUGAGCCAGGACCUCUGGGCAAAAGUGACUACAAAUCUUAAAACCCUACACAAGUAACCACAGCUCUUAGAACCUCACCAGAGUGGUAGAGCAAGUCUACUCCCAUUCCCCAGGCGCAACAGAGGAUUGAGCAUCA | 0.266 ratio
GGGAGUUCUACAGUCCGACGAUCAAGCCCUACCAACAGCUACAGAAUAUCAUAUGCUAUGACUGUGUUGCCUUUUUUUUUAGCUAGUUUUCAUUGUGUUCUGUUUUCACUCUUGAUAAGUAAAAAACUCUGAAAUUGCCACUGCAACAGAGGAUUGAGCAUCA | 1.9 ratio

Study 3
Target: Centromere-binding protein 1, full length, His-tagged (CBF1, Saccharomyces cerevisiae, UniProt P17106, residues 1-351)
Sequence of UniProt P17106 (whole entry, looked up): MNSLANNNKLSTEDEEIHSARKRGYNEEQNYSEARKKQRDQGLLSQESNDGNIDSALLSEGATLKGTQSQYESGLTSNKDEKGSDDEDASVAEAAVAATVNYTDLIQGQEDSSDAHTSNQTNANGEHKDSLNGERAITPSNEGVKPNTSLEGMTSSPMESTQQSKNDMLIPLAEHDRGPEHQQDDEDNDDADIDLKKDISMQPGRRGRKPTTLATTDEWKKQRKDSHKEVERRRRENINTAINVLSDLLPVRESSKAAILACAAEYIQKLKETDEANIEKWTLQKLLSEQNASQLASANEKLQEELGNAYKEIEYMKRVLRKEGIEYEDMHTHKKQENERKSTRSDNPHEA
Technique: competition protein-binding microarray
Molecule type: double-stranded DNA, one strand shown
Matrix: in vitro
Tested at: 2 µM
Setting: whole 60-bp probe, lowest competitor level
Together with: Pho4 competitor, 0.05 µM
Direction: higher = stronger binding
Sequence | fluorescence intensity [a.u.]
TTATTTCCCTTCCCTCGCGTGCCAGTCGGCGATCTCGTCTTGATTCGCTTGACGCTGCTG | 59.6
CTAACGAAGGTTTGAACCGTGGGTGACAAGCCAAGTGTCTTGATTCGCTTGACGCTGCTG | 59.2
CTAACGAAGGTTTGGTCAGTGGGTGACAAGCCAAGTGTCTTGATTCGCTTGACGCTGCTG | 71.5
CGACTTTTTTCTTTTCACCTGCAGCTTGAGCCAAACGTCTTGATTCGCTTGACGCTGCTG | 85.1
AAAGTATTTTACTGGCACGATGCATCCATGGGACTAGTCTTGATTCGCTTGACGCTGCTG | 82.9
AAAAAAATACATAGTAGCATGACAAACTAATAATAAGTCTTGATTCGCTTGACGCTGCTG | 103
GCATTGCATTGCTGGCACGTTTTTGTGCAGCATGAAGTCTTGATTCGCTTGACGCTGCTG | 221
CTAACGAAGGTTTGTTACGTGGGTGACAAGCCAAGTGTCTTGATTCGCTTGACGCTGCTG | 70.7
AAAGCGGTAATTTGGGGTGTGGGTGCAGATATCTATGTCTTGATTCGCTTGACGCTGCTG | 80.5
CATACCCAACCTTGTCCAGTGGGTGAAGATATTTGTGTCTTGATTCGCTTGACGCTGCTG | 69.2
AAGTTGGTAAGCGACCACGTGATGGTGCTTTGGGTTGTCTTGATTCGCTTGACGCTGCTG | 4850
GCTATTGTATTTTATGGCGTGGGTAAAAATTCAATAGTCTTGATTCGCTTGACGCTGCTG | 102
GCTGCTGCTGCGAGTCACGGGCTCTGTTTACTACTAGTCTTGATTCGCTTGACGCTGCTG | 272

Study 4
Target: CCND3, cyclin fold, Cln2 fusion (human)
Technique: yeast growth competition, sequencing
Matrix: yeast
Setting: weak parent motif
Baseline: not given
Direction: higher = stronger binding
Parent: SCAPER docking peptide (human); SNARRSLNFGGST
Substitution | normalised enrichment score
SNARFSLNFGGST [R5F] | 0.167
MNARRSLNFGGST [S1M] | 0.0957
SNARRSSNFGGST [L7S] | 0.148
SNARRSLNYGGST [F9Y] | 0.109
SNARRSDNFGGST [L7D] | 0.16
GNARRSLNFGGST [S1G] | 0.101
SNARRSLNGGGST [F9G] | 0.0723
SNARRLLNFGGST [S6L] | 0.0781
SNARRSLNWGGST [F9W] | 0.2
SNARRSLNFEGST [G10E] | 0.065
SNARASLNFGGST [R5A] | 0.0815
SAARRSLNFGGST [N2A] | 0.198
SVARRSLNFGGST [N2V] | 0.205
SNANRSLNFGGST [R4N] | 0.121
SNNRRSLNFGGST [A3N] | 0.24
SNLRRSLNFGGST [A3L] | 0.0903
SNARVSLNFGGST [R5V] | 0.121

Repeated from above (study 3):
Sequence | fluorescence intensity [a.u.]
GCTGCTGCTGCGAGTCACGGGCTCTGTTTACTACTAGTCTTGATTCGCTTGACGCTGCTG | 272
AAAAAAATACATAGTAGCATGACAAACTAATAATAAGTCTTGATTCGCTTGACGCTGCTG | 103
CTAACGAAGGTTTGTTACGTGGGTGACAAGCCAAGTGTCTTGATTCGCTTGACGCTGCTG | 70.7
GCTATTGTATTTTATGGCGTGGGTAAAAATTCAATAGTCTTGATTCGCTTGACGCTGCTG | 102
